Published values collected from several papers.

| SMILES | test | system | setting | scale | measurement | result |
| --- | --- | --- | --- | --- | --- | --- |
| CC[C@H](C)[C@H](NC(=O)[C@H](Cc1ccccc1)NC(=O)[C@H](CCC(=O)O)NC(=O)[C@H](CCCCNC(=O)COCCOCCNC(=O)COCCOCCNC(=O)CC[C@H](NC(=O)CCCCCCCCCCCCCCCCC(=O)O)C(=O)O)NC(=O)[C@H](C)NC(=O)[C@H](C)NC(=O)[C@H](CCC(N)=O)NC(=O)CNC(=O)[C@H](CCC(=O)O)NC(=O)[C@H](CC(C)C)NC(=O)[C@H](Cc1ccc(O)cc1)NC(=O)[C@H](CO)NC(=O)[C@H](CO)NC(=O)[C@@H](NC(=O)[C@H](CC(=O)O)NC(=O)[C@H](CO)NC(=O)[C@@H](NC(=O)[C@H](Cc1ccccc1)NC(=O)[C@@H](NC(=O)CNC(=O)[C@H](CCC(=O)O)NC(=O)C(C)(C)NC(=O)[C@@H](N)Cc1cnc[nH]1)[C@@H](C)O)[C@@H](C)O)C(C)C)C(=O)N[C@@H](C)C(=O)N[C@@H](Cc1c[nH]c2ccccc12)C(=O)N[C@@H](CC(C)C)C(=O)N[C@H](C(=O)N[C@@H](CCCNC(=N)N)C(=O)NCC(=O)N[C@@H](CCCNC(=N)N)C(=O)NCC(=O)O)C(C)C | measured: Rhinorrhoea | type 2 diabetes patients | dose not given | baseline: subjects | adverse event incidence | 0% |
| Cc1c(Cl)c(C)[n+]([O-])c(Cl)c1-c1noc(-c2cc(O)c(O)c([N+](=O)[O-])c2)n1 | measured: Hyperhidrosis | healthy Chinese subjects | oral, 100 mg, 4 days |  | adverse drug reaction incidence | 0% |
| Cc1c(C(=O)O)ccc2c3n(nc12)[C@@H]1[C@H](C3)N(CC2CC2)[C@@]2(C(=O)Nc3cc(Cl)ccc32)[C@H]1c1cccc(Cl)c1F | phase Ia trial, measured: Dysgeusia | cancer patients | oral, dose not given |  | adverse event incidence | 20% |
| Cc1cc(Nc2ccc(S(F)(F)(F)(F)F)cc2)n2nc(C(C)(F)F)nc2n1 |  | Plasmodium falciparum malaria patients | oral, 400 mg |  | adverse event Chills | 7.7% |
| FC(F)(F)c1ccc(CNc2ccc(Cc3c[nH]c4ncc(Cl)cc34)cn2)cn1 | measured: Hypertension | patients with advanced solid tumours | oral, dose not given, all grades, possibly related to drug |  | adverse event incidence | 24% |
| CNC(=O)c1ccc(-c2cnc3ncc(Cc4ccc5ncccc5c4)n3n2)cc1F | phase 1 clinical trial, measured: blood alkaline phosphatase increased | HCC expansion cohort | oral, 600 mg twice daily, grade 3 or 4 |  | adverse event incidence | 0% |
| CC(=O)O[C@H]1C(=O)[C@@]2(C)[C@H]([C@H](OC(=O)c3ccccc3)[C@]3(O)C[C@H](OC(=O)[C@H](O)[C@@H](NC(=O)c4ccccc4)c4ccccc4)C(C)=C1C3(C)C)[C@]1(OC(C)=O)CO[C@@H]1C[C@@H]2O | measured: Diarrhoea | patients with advanced solid tumours | intravenous, dose not given, grade 3 and 4, possibly related to drug |  | adverse event incidence | 7% |
| NCCONC(=O)[C@@H]1CC[C@@H]2CN1C(=O)N2OS(=O)(=O)O |  | healthy Chinese men | intravenous, 2 g, treatment-related |  | adverse event incidence | 12.5% |

A few entries again:
| SMILES | test | system | setting | scale | measurement | result |
| --- | --- | --- | --- | --- | --- | --- |
| CC[C@H](C)[C@H](NC(=O)[C@H](Cc1ccccc1)NC(=O)[C@H](CCC(=O)O)NC(=O)[C@H](CCCCNC(=O)COCCOCCNC(=O)COCCOCCNC(=O)CC[C@H](NC(=O)CCCCCCCCCCCCCCCCC(=O)O)C(=O)O)NC(=O)[C@H](C)NC(=O)[C@H](C)NC(=O)[C@H](CCC(N)=O)NC(=O)CNC(=O)[C@H](CCC(=O)O)NC(=O)[C@H](CC(C)C)NC(=O)[C@H](Cc1ccc(O)cc1)NC(=O)[C@H](CO)NC(=O)[C@H](CO)NC(=O)[C@@H](NC(=O)[C@H](CC(=O)O)NC(=O)[C@H](CO)NC(=O)[C@@H](NC(=O)[C@H](Cc1ccccc1)NC(=O)[C@@H](NC(=O)CNC(=O)[C@H](CCC(=O)O)NC(=O)C(C)(C)NC(=O)[C@@H](N)Cc1cnc[nH]1)[C@@H](C)O)[C@@H](C)O)C(C)C)C(=O)N[C@@H](C)C(=O)N[C@@H](Cc1c[nH]c2ccccc12)C(=O)N[C@@H](CC(C)C)C(=O)N[C@H](C(=O)N[C@@H](CCCNC(=N)N)C(=O)NCC(=O)N[C@@H](CCCNC(=N)N)C(=O)NCC(=O)O)C(C)C | measured: Rhinorrhoea | type 2 diabetes patients | dose not given | baseline: subjects | adverse event incidence | 0% |
